# Measurements gathered from unrelated publications.
# Protocols differ between the studies behind these lines. “And” joins repeats or separate records; there may be more than shown. ± marks the error that the study gave.
SMILES,assay,test system,conditions,how to read,measurement,value
O=C1NCCc2nc(OCc3cccc(F)c3)ccc21,refers to: Irritability,Sprague-Dawley rat male,"oral, 100 mg/kg, 4 h",direction not given,Irwin test score,0.17
N#Cc1ccc2c(c1)[C@H]1CCCN(C(=O)c3ccc4[nH]cnc4c3)[C@H]1C2,,"human, male","40 mg, day 15",,DHEA-S level,4.5 µmol/L
CCN1/C(=C/C(C)=O)Sc2ccc(F)cc21,,cynomolgus monkey,"oral, 10 mg/kg, 6 h post-dose",,mean blood pressure,95 ± 6 mmHg
CNCc1ccc(-c2[nH]c3cc(F)cc4c3c2CCNC4=O)cc1,,human patients,"oral, 360 mg twice daily, all grades",,pulmonary embolism incidence,0%
O=C(c1ccc([C@H]2[C@@H](F)[C@@H](F)C[C@@H](F)[C@H]2F)cc1)N1CC(O)C1,liver microsome stability,mouse liver microsomes,1 µM,,hepatic clearance,23 mL/min/kg
Cc1ccc([C@@H]2O[C@H](CO)[C@@H](O)[C@H](O)[C@H]2O)cc1Cc1ccc(-c2ccc(F)cc2)s1,,"human, maintenance hemodialysis patients","oral, 100 mg once daily, steady state, mean",,volume of distribution,180 L
O=C(Nc1ccc(Cl)cc1)Nc1ccc(Cl)c(Cl)c1,,whole cow milk,20 nM nominal,,dose fraction in skim milk,10.1%
C[C@@H](N)COc1ccc(-c2cnc3ccc(N[C@H](C)c4cccc(F)c4)nn23)cc1,,female Balb/c nude mouse,"100 mg/kg once daily, 1 h, steady state",,unbound plasma concentration,450 ± 84 nM
COc1ccc2c(=O)n(C)c(-c3ccccc3)nc2c1,,"Sprague-Dawley rat, male, large intestine","oral, 30 mg/kg, 2 h",,concentration,500 ng/mL
O=C(CC1CCOCC1)Nc1ccc(C2CCCCC2)cc1,,mouse liver microsomes,1 µM,,hepatic clearance,86 mL/min/kg
O=C(Nc1nc2cccc(-c3ccc(CN4CCS(=O)(=O)CC4)cc3)n2n1)C1CC1,refers to: hypotension,human rheumatoid arthritis patients,"oral, 150 mg once daily, 4 weeks, regardless of relatedness",,treatment-emergent adverse events,0%
C#C[C@]1(CO)O[C@@H](n2cnc3c(N)nc(F)nc32)C[C@@H]1O,,"human, plasma","oral, 15 mg single dose, extrapolated beyond 96 h",,AUC(0-168 h),1.4 µM·h
O=C(O)CSc1nnc(Br)n1-c1ccc(C2CC2)c2ccccc12,,"KM mouse, chronic hyperuricaemia model","dose not given, day 23",,body weight,36.9 g and 41.2 g and 37.9 g and 33.3 g and 32.2 g and 38 g
CNC(=O)c1ccc(-c2cnc3ncc(Cc4ccc5ncccc5c4)n3n2)cc1F,refers to: Anemia,cancer patients,"oral, dose not given, dose escalation, grade 3-4",,patients with adverse event,5%
O=C(Nc1ccc([C@H]2[C@@H](F)[C@@H](F)C[C@@H](F)[C@H]2F)cc1)c1cn[nH]c1,,cryopreserved rat hepatocytes,1 µM,,hepatic clearance,13 mL/min/kg
Cc1ccc2cncc(N3CCc4c(cc(Cn5ccnc5)cc4-c4cn(C)nc4C(F)(F)F)C3=O)c2c1,,"CD-1 mouse, male, plasma","oral, 10 mg/kg",,AUC extrapolated,0.8%
C=CC(=O)Nc1cc(Nc2nccc(-c3cn(C4CC4)c4ccccc34)n2)c(OC)cc1N(C)CCN(C)C,freeze-thaw stability,rat plasma,"40 ng/mL, three freeze-thaw cycles",baseline: nominal concentration,relative error,-7.9%
[18F]c1ccc(-c2ccc3c(c2)[nH]c2ccncc23)cn1,microPET/CT imaging,"B6SJL mouse, normal, brain","intravenous, 5 min",,SUV,1.47 ± 0.164
Cl.[2H]C([2H])([2H])CC(=O)c1cnc(NC(=O)C2CC2)cc1Nc1cccc(-c2ncn(C([2H])([2H])[2H])n2)c1OC,geometric mean,human,"oral, 50 mg single dose, fasted, liquid",,elimination rate constant,2.58e-05 s⁻¹
N#C[C@@]1(c2ccc3c(N)ncnn23)O[C@H](CO)[C@@H](O)[C@H]1O,plasma protein binding,mouse plasma,"1 µM, time not given",,recovery,96.5%
COc1c(Nc2cc(C(F)(F)F)cc(C(F)(F)F)c2)c(=O)c1=O,"chemical stability, HPLC-MS",borate buffered saline,"pH 10.2, no N-acetyl-lysine",,degradation rate constant,0.1 h⁻¹
O=C(COc1ccc(Cl)cc1)NC12CC(c3nnc([C@H]4C[C@@H](OC(F)(F)F)C4)o3)(C1)C2,refers to: Headache,"healthy humans, both sexes","oral, 400 mg, single ascending dose",baseline: subjects,treatment-emergent adverse events,33.3%
CN(C(=O)C(C)(C)c1cc(C(F)(F)F)cc(C(F)(F)F)c1)c1cnc(N2C[C@H]3COCCN3C[C@H]2CO)cc1-c1ccc(F)cc1[14CH3],,pooled human liver microsomes,"pH 7.4, substrate depletion",,pathway contribution to clearance,100%
O=C(NCCN1CCCC1)c1cc(-c2ccc(CN3CCOCC3)cc2)nc2ccc(F)cc12,,human hepatocytes,,,intrinsic clearance,< 0.5 mL/min/g
CN[C@@H](C)C(=O)N[C@H]1CN(S(=O)(=O)c2cccc(S(=O)(=O)N3CC[C@H]4CC[C@@H](C(=O)NC(c5ccccc5)c5ccccc5)N4C(=O)[C@@H](NC(=O)[C@H](C)NC)C3)c2)CC[C@H]2CC[C@@H](C(=O)NC(c3ccccc3)c3ccccc3)N2C1=O,LC-MS/MS,"human, advanced solid tumours, plasma","intravenous, 20 mg weekly, day 1",,AUC(0-t),458 ± 199 ng·h/mL
Cc1ccc([C@@H]2O[C@H](CO)[C@@H](O)[C@H](O)[C@H]2O)cc1Cc1ccc(-c2ccc(F)cc2)s1,refers to: inorganic phosphorus,Japanese type 2 diabetes patients,"25 mg, day 16, 24 h urine collection",baseline: baseline,urinary phosphate excretion change,-53.4 mg
O=C(Nc1ccc(C2CCCCC2)cc1)[C@H]1CC1(F)F,liver microsome stability,cynomolgus liver microsomes,1 µM,,hepatic clearance,35 mL/min/kg
C[C@@H]1OC(=O)[C@H](Cc2ccccc2)[C@H]1O,soil adsorption,soil,"pH 6.9, organic carbon 0.8 %",,KFoc,215 mL/g
CCOc1c([C@H](C)n2nc(C)c3c(N)ncnc32)cc(Cl)c(F)c1[C@@H]1CNC(=O)C1,refers to: QRS ≤100 ms,previously treated B-cell malignancy,"oral, 5 mg once daily, baseline below thresholds",,ECG observations,100%
NC1(C(=O)N[C@@H](CCO)c2ccc(Cl)cc2)CCN(c2nc[nH]c3nccc2-3)CC1,,metastatic CRPC patients,"480 mg b.i.d., grade 3 to 4, treatment-related, with: enzalutamide 160 mg daily",,incidence of Dysuria,0%
Cc1ccc(OC2CCN(c3c(C#N)cnc4ccc(F)cc34)CC2)cn1,,human liver microsomes,,,intrinsic clearance (scaled),58 mL/min/kg
COc1cc(Nc2ncc3c(n2)-c2ccc(Cl)cc2C(c2c(F)cccc2OC)=NC3)ccc1C(=O)O,"refers to: Hypokalemia, grade 3","cancer patients, phase 1/2","oral, dose not given, with: pembrolizumab",,patients with adverse event,8%
CSCC[C@H](NC(=O)[C@@H](N)CCSC)C(=O)N[C@@H](CCCNC(=N)N)C(=O)N[C@@H](Cc1c[nH]c2ccccc12)C(=O)N[C@@H](CO)C(=O)N[C@@H](CCCNC(=N)N)C(=O)N[C@@H](CCCCN)C(=O)N[C@@H](CCSC)C(=O)N1CCC[C@H]1C(=O)N[C@@H](CS)C(=O)N[C@H](C(=O)N[C@@H](CO)C(N)=O)C(C)C,"12G5 competition, SUP-T1 cells",human plasma,"20 µM, 8 h, 37 °C",,remaining activity,1 ± 0.3%
CN(C)CCC(=O)Nc1ccc([C@H]2[C@@H](F)[C@@H](F)C[C@@H](F)[C@H]2F)cc1,liver microsome stability,mouse liver microsomes,1 µM,,hepatic clearance,70 mL/min/kg
Cc1cc(C)c(CNC(=O)c2cc(Cl)c3c(c2C)O[C@@](C)([C@H]2CC[C@H](N(C)C)CC2)O3)c(=O)[nH]1,refers to: Hyponatremia,human patients,"oral, 200 mg once daily, 1 day onset day 14",,patients with grade ≥3 TEAE,0%
COc1ccc2[nH]c([S+]([O-])Cc3ncc(C)c(OC)c3C)nc2c1 (centres unmarked),,"healthy Chinese volunteers, plasma","oral, 20 mg, enteric-coated tablets, all CYP2C19 genotypes",,Cmax,454 ± 530 ng/mL
O=C(O)[C@H]1O[C@@H](Oc2ccccc2)[C@H](O)[C@@H](O)[C@@H]1O,ultrafiltration,normal rat serum,37 °C,,serum protein binding,35 ± 16%
O=C(NCc1cc[nH]n1)c1ccc(C2CCCCC2)cc1,liver microsome stability,dog liver microsomes,1 µM,,hepatic clearance,27 mL/min/kg
COc1cccc(-c2n[nH]c(SCc3ccccn3)n2)c1OC,,"Sprague-Dawley rats, both sexes","oral dietary, 100 mg/kg/day, day 90, 24 h",,plasma concentration,3250 ng/mL
Cc1cc(NC2CCN(C(=O)OC3CCN(C(=O)/C=C/CN(C)C)C3)CC2)n2ncc(C(C)C)c2n1 (centres unmarked),"CTCAE v4.0, refers to: Hyponatremia",patients with advanced solid tumours,"oral, dose not given, TIW, grade 3 or higher",,patients with TEAE,18%
O=C(OC(C(F)(F)F)C(F)(F)F)N1CCN(Cc2cccc(Oc3ccccc3)c2)CC1,PET blocking study,"rhesus monkey, brain STR","0.3 mg/kg, compound pretreatment, with: [18F]T-401 tracer",,Ktrans,0.0041 min⁻¹
CN1C(=O)[C@@H](NC(=O)c2nnc(Cc3ccccc3)[nH]2)COc2cccnc21,phase I multiple ascending dose,"human, male and female","oral, 200 mg, 14 days",,TEAE leading to permanent discontinuation,0%
C[C@@H]1CCO[C@H]2Cn3cc(C(=O)NCc4ccc(F)cc4F)c(=O)c(O)c3C(=O)N12,"population PK, post-hoc","children, 25 to <30 kg, plasma","oral, 22.4 mg granules, 24 h, steady state, geometric mean",,plasma concentration,938 ng/mL
C[C@@H]1CN(CC(=O)N2CC(C)(C)c3ncc(Cc4ccc(F)cc4)cc32)[C@@H](CN2CCOC[C@H]2C)CN1,,human liver microsomes,1 µM,,intrinsic clearance,130 ± 25 µL/min/mg
Cn1ncnc1[C@H]1c2n[nH]c(=O)c3cc(F)cc(c23)N[C@@H]1c1ccc(F)cc1,,"human patients, plasma","oral, 400 µg/m2 twice daily day 1, day 5, dose level DL2, median, with: temozolomide 20 mg/m2 daily days 2-6",,AUC(0-8h),60.6 ng·h/mL
CCn1ncc2c1-c1cnc(N)c(c1)O[C@H](C)c1cc(F)ccc1-c1nn(C)nc1C2,,"female athymic nude mice, sample B PDX","oral, 0.2 mg/kg twice daily for 5.5 days, 1 h",,unbound plasma concentration,23 ± 0.3 nM
CN1CCC(c2ccc(-c3ccc(C4CCCCC4)cc3)cn2)CC1,liver microsome stability,mouse liver microsomes,1 µM,,hepatic clearance,64 mL/min/kg
Fc1ccc(CCCCN2CCN(c3ccccn3)CC2)cc1,,"rat, brain and plasma","intraperitoneal, 50 mg/kg single, at Cmax",baseline: brain over plasma,tissue/plasma ratio,1.08
CC(C)C[C@@H]1NC(=O)[C@H](C)N(C)C(=O)[C@H](Cc2ccccc2)NCc2ccc(n2C)CNC1=O,PAMPA,lecithin in dodecane,"100 µM, 17 h, pH 6.4, 37 °C",,-log Pe,6.3
C=CC(=O)NC1CCN(c2ncc3ncnc(Nc4ccc(Oc5ccc6c(c5)ncn6C)c(C)c4)c3n2)CC1,refers to: total radioactivity,"healthy male human, whole blood and plasma","oral, 60 mg, 216 h, geometric mean",,blood-to-plasma ratio,3.84
C=CC[C@@H]1/C=C(\C)C[C@H](C)C[C@H](OC)[C@H]2O[C@@](O)(C(=O)C(=O)N3CCCC[C@H]3C(=O)O[C@H](/C(C)=C/[C@@H]3CC[C@@H](O)[C@H](OC)C3)[C@H](C)[C@@H](O)CC1=O)[C@H](C)C[C@@H]2OC,LC-MS/MS,"rat, whole blood","intraperitoneal, 0.5 mg/kg/day, 18 days",,trough blood level,2.4 ± 0.6 µg/L
COc1cccc(OC)c1-c1cc(C(=O)NC2(C(=O)O)C3CC4CC(C3)CC2C4)nn1-c1ccc(C(=O)N(C)CCCN(C)CCCN(C)C(=O)CN2CCN(CC(=O)[O-])CCN(CC(=O)[O-])CCN(CC(=O)[O-])CC2)cc1C(C)C.[177Lu+3] (centres unmarked),,"mouse, HT-29 xenograft, lung",168 h post injection,,tissue uptake,0.38 %ID/g
[H]/N=C(/N)c1ccc(NCc2nc3cc(C(=O)N(CCC(=O)O)c4ccccn4)ccc3n2C)cc1,,"healthy human, plasma","oral, dose not given, dabigatran etexilate dosed, with: vepdegestrant",baseline: alone,AUCinf increase,98%
CCN1CCN(Cc2ccc(NC(=O)c3ccc(C)c(NC(=O)c4cncc(-c5cccs5)c4)c3)cc2C(F)(F)F)CC1,LC-MS/MS,"C57BL/6 mouse, plasma","intraperitoneal, 15 mg/kg single dose, 8 h",,mean plasma concentration,45 ng/mL
c1ncc(-c2ccc(C3CCCCC3)cc2)cn1,hepatocyte stability,cryopreserved human hepatocytes,1 µM,,hepatic clearance,13 mL/min/kg
CC(C)(C(=O)N1CCOc2c(C#N)cncc2C1)C(F)F,refers to: nervous system disorders,"healthy humans, both sexes","oral, 30 mg single dose",,subjects with TEAE,33.3%
